{"data": "Measurements from different studies", "sample": "plasma", "note": "Lines come from different studies, so protocols differ. ± gives the spread as reported."}
{"SMILES": "CC[C@H](C)[C@@H]1NC(=O)[C@H](Cc2ccc(O)cc2)NC(=O)CCCSC[C@@H](C(=O)N(CC(=O)N[C@@H](CC(C)C)C(=O)NCC(N)=O)Cc2ccc(F)cc2)NC(=O)[C@H](CC(N)=O)NC(=O)[C@H](CCC(N)=O)NC1=O", "test system": "healthy human", "conditions": "intranasal, 400 µg every 3 h, after second dose", "Cmax": "0.26 ng/mL"}
{"SMILES": "CC1(C)CC[C@]2(NC(=O)C(C)(F)F)CC[C@]3(C)[C@H](C(=O)C=C4[C@@]5(C)C=C(C#N)C(=O)C(C)(C)[C@@H]5CC[C@]43C)[C@@H]2C1", "test system": "human", "conditions": "dose not given, added: gemfibrozil", "how to read": "baseline: without gemfibrozil", "Cmax": "no effect"}
{"SMILES": "Cc1cc(F)ccc1-c1cc(N2C[C@H]3COC(O)CN3C[C@H]2CO)ncc1N(C)C(=O)C(C)(C)c1cc(C(F)(F)F)cc(C(F)(F)F)c1 (some centres unmarked)", "test system": "human", "conditions": "oral, 120 mg, geometric mean", "Cmax": "128 ng/mL"}
{"SMILES": "C[C@]12C[C@H](c3ccc(S(C)(=O)=O)cc3)C3=C4CC[C@@H](O)C=C4CC[C@H]3[C@@H]1CC[C@@]2(O)C(F)(F)C(F)(F)F", "test system": "human", "conditions": "oral, 5 mg multiple doses, day 28", "Cmax": "8.75 ng/mL"}
{"SMILES": "COc1cc2c(cc1O)CCN1C[C@@H](CC(C)C)[C@H](O)C[C@H]21", "assay": "refers to: non-deuterated analyte", "test system": "healthy human male", "conditions": "oral, 25 mg, geometric mean, [14C]-tetrabenazine dosed", "Cmax": "2.73 ng/mL"}
{"SMILES": "CCCCCCCCCCCCCCCC(=O)N[C@@H](CCCCN)C(=O)N[C@@H](CCCCN)C(=O)N[C@@H](CO)C(=O)N[C@@H](CCCNC(=N)N)C(=O)N[C@@H](C)C(=O)N[C@@H](CC(C)C)C(=O)N[C@@H](Cc1ccccc1)C(N)=O", "assay": "UHPLC-MS/MS", "test system": "human patients", "conditions": "intravenous, 0.3 mg/kg over 2 h", "Cmax": "1430 ng/mL"}
{"SMILES": "Cc1[nH]c(=O)c(CNC(=O)c2cc(Cl)c3c(c2C)O[C@@](C)([C@H]2CC[C@H](N(C)C)CC2)O3)c(C)c1O", "assay": "LC-MS/MS", "test system": "human male", "conditions": "oral, 200 mg, single dose, metabolite of valemetostat, added: [14C]-valemetostat", "Cmax": "471 ng/mL"}
{"SMILES": "CCCCCCCOc1ccc(CC[C@](N)(CO)COP(=O)(O)O)cc1C(F)(F)F", "test system": "healthy human males", "conditions": "0.125 mg, day 1", "Cmax": "0.31 ng/mL"}
{"SMILES": "CC(C)C[C@H](NC(=O)[C@H](CCCN)NC(=O)CNC(=O)[C@@H](NC(=O)[C@H](C)NC(=O)[C@@H]1CSCSC[C@H](NC(=O)CC[C@H](N)C(=O)O)C(=O)N[C@@H](CC(N)=O)C(=O)N[C@@H]([C@@H](C)O)C(=O)N[C@@H](C)C(=O)N[C@@H]([C@@H](C)O)C(=O)N1)[C@@H](C)O)C(=O)N[C@@H](C)C(=O)N[C@@H](CCC(=O)O)C(=O)N[C@@](C)(Cc1ccccc1)C(=O)N[C@@H](CC(C)C)C(=O)N[C@H](C(=O)N[C@@H](CCCNC(=N)N)C(=O)N[C@@H](CO)C(=O)N[C@@H](CO)C(=O)N[C@@H](CC(N)=O)C(=O)N(C)[C@@H](CC(N)=O)C(=O)N[C@@H](Cc1ccccc1)C(=O)NCC(=O)N1CCC[C@H]1C(=O)N[C@@H](CCCCNC(=O)CC[C@H](NC(=O)CC[C@H](NC(=O)CCCCCCCCCCCCCCCCCCC(=O)O)C(=O)O)C(=O)O)C(=O)N[C@@H](CC(C)C)C(=O)N1CCC[C@H]1C(=O)N1CCC[C@H]1C(=O)N[C@H](C(=O)N[C@@H](CCC(=O)O)C(=O)N[C@H](C(=O)NCC(=O)N[C@@H](CO)C(=O)N[C@@H](CC(N)=O)C(=O)N[C@H](C(=O)N[C@@H](Cc1ccc(O)cc1)C(N)=O)[C@@H](C)O)C(C)C)[C@@H](C)O)C(C)C", "test system": "healthy human", "conditions": "subcutaneous, 0.04 mg single dose, geometric LS mean", "Cmax": "4.4 ng/mL"}
{"SMILES": "COc1cc2c(cc1OC)[C@H]1C[C@H](O)[C@H](CC(C)C)CN1CC2", "assay": "refers to: non-deuterated analyte", "test system": "healthy human male", "conditions": "oral, 25 mg, geometric mean, [14C]-tetrabenazine dosed", "Cmax": "6.62 ng/mL"}
{"SMILES": "CC(CCC(=O)NCC(=O)O)C1CCC2C3CCC4CC(OC5OC(C(=O)O)C(O)C(O)C5O)CCC4(C)C3CC(O)C12C (centres unmarked)", "test system": "human", "conditions": "concentration not given, endogenous baseline diurnal", "Cmax": "223 ± 47 nM"}
{"note": "Some of these lines once more:"}
{"SMILES": "CCCCCCCCCCCCCCCC(=O)N[C@@H](CCCCN)C(=O)N[C@@H](CCCCN)C(=O)N[C@@H](CO)C(=O)N[C@@H](CCCNC(=N)N)C(=O)N[C@@H](C)C(=O)N[C@@H](CC(C)C)C(=O)N[C@@H](Cc1ccccc1)C(N)=O", "assay": "UHPLC-MS/MS", "test system": "human patients", "conditions": "intravenous, 0.3 mg/kg over 2 h", "Cmax": "1430 ng/mL"}
{"SMILES": "Cc1[nH]c(=O)c(CNC(=O)c2cc(Cl)c3c(c2C)O[C@@](C)([C@H]2CC[C@H](N(C)C)CC2)O3)c(C)c1O", "assay": "LC-MS/MS", "test system": "human male", "conditions": "oral, 200 mg, single dose, metabolite of valemetostat, added: [14C]-valemetostat", "Cmax": "471 ng/mL"}
